Experimental data gathered from unrelated publications.
Numbered parts are unrelated; each lists some results of a single study. Changes are numbered by the printed parent chain.

Series 1 — target: CCNE2, cyclin fold, Cln2 fusion (human); method: yeast growth competition, sequencing; medium: yeast; notes: strong parent motif; baseline: not given; reading: higher = stronger binding
Parent: INSM1 docking peptide (human); PKAIRKLHFEDEV
Variant | normalised enrichment score
PKAIRKLYFEDEV [H8Y] | 1.86
PKAIRKLDFEDEV [H8D] | 1.29
PKAIRKLHMEDEV [F9M] | 0.357
PKGIRKLHFEDEV [A3G] | 0.748
PKAIDKLHFEDEV [R5D] | 0.306
PKAIRKLHFEDIV [E12I] | 1.79
PKAIYKLHFEDEV [R5Y] | 0.0184
PKAIRKLHHEDEV [F9H] | 0.392
PKAIRKIHFEDEV [L7I] | 0.618
PKAYRKLHFEDEV [I4Y] | 0.374
PKAIHKLHFEDEV [R5H] | 0.0935
PKARRKLHFEDEV [I4R] | 3.56
PKAIRKLRFEDEV [H8R] | 0.68
PKAIRKLKFEDEV [H8K] | 1.6
PKAIRKLHFVDEV [E10V] | 1.2
PKAIRHLHFEDEV [K6H] | 0.729

Series 2 — method: protein binding microarray; form: double-stranded DNA, one strand shown; medium: in vitro; concentration: not given; baseline: not given; reading: higher = stronger binding
Target: Histone acetyltransferase KAT6A, both winged helices, GST fusion (KAT6A, Homo sapiens, UniProt Q92794, residues 1-181)
Notes: 8-mer, flanks averaged, mean of 2 arrays, mostly near background
Construct (chain): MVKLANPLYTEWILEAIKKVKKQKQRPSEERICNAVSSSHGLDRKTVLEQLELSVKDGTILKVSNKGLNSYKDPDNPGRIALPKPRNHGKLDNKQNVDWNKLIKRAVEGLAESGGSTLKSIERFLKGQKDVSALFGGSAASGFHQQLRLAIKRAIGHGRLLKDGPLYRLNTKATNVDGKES
Oligonucleotide | E-score
AGCATCCA | -0.196
CGATTACA | 0.0395
CAGTTGAA | -0.0609
CAATGGAC | -0.0357
GCGCTCGA | 0.241
CACTTGTA | -0.143
TCGCCACA | -0.0566
GACTATGA | -0.124
GGAGAATA | -0.108
GGCTTTCA | -0.0137
ATATTAAG | -0.112
ACCAGTCG | 0.0486
ATGAAAGG | -0.127
ACGCTCGG | 0.219
ACCCGACG | 0.255
AAGGCAGA | -0.21
CCTCCGGA | 0.0542
ATTGAGAC | -0.0318
ACTTTGGC | -0.0205
CCCCTCTA | -0.241
CATATCGA | -0.00709
ACAGAGGT | -0.0703
GACGCAAA | 0.133

Series 3 — method: RNA Bind-n-Seq; form: RNA; medium: in vitro; concentration: 100 nM; baseline: input RNA pool; reading: higher = stronger binding
Target: RING finger protein unkempt homolog, zinc fingers 1-6, SBP tag (UNK, Homo sapiens, UniProt Q9C0B0, residues 30-357)
Sequence of UniProt Q9C0B0 (30-357, looked up): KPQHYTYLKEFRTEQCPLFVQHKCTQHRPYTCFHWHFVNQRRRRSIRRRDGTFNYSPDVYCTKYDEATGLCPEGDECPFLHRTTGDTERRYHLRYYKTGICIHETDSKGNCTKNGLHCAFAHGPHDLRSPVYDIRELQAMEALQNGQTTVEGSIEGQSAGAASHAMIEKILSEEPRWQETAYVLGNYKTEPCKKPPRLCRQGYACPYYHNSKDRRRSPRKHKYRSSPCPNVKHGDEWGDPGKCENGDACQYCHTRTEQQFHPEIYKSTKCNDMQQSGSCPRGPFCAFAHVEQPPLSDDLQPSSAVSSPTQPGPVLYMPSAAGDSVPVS
Notes: RNA with constant flanks, vertebrate orthologous sites, ends assumed
All sequences stand within: GGGAGUUCUACAGUCCGACGAUC … CAACAGAGGAUUGAGCAUCA
Oligonucleotide | bound/input enrichment [ratio]
UUCCAACUCAGGGCUUAUUUAUUUUAAGAUUAUCAACUAUAAAUCUAAUUUAUUACCAAAUCUUGGUCUUUAAAAAUAUAUAUUGUUGGAACCUUGACAGAUACUUCUAUAUUGUCAGCU | 0.528
GGGUGGCCGGUGGGGGAAUCCCAUGCCCUGGCCUUGCCUCCCCUCCCUGCCACCCGCUCCUAGUUAUUAUUUUUUAACCACCAUGUGAUUAAGGUCGGCGCUGCCUCCCCCGACCCGCUC | 1.41
CCGGUCUUCCACUUAGGCUCAGCCUCAGAUCUAUAGGAUUUAUGACAAAUGUAUUAUAUCUAGUUAAGUUGAGUUCAUUAUUUUUUUAUUGGCCUGUAAAUAAAGAUGGCAUCUUCUACA | 1.2
AGGGACGCUUUGAUGUAAAAAUUGAAGUUAAGAGCUGAUCGCAAGCACAAAUCUUUCUCACUAGCCAUUUAAAAAGUUAAAAAAGAUACAAAAACAAAAACCUACUAGUCUUGAAUAAAC | 0.798
AGUCGAUGCAAUUACAUAAUACUGAGCUUACAGUUGAAAGGAUAUCCCAGUAUGUGUUGGUAGUUACUGAAGGAAUUAGAACUGGUGUUGCCUUGUAUUUUAGCCCUUGUUUCAGGUUUU | 0.368
CCUCUCACCCCCCCAUCCUCUGACAUGAGUGGAUUCUUUUUUCUUUUUUUACAUUUUGUAUAGAAACAAAUUCAUUUAAACAAACUUAUUAUUAUUAUUAUUUUUUACAAAAUAUAUAUA | 1.55
CAUAUCCUUGUUACUGUGAUAUUUAAAAUAUCCACAGUGUCCACCUUUUCCAAAAGAUUCUAGUAAUGAUCUAGAAAUAUCUUUCUCUUAUCUGUUAUUUAUCAAUUUUUCCCAGUAUUU | 0.812
UAUAGUUUACAUUGUACUAAUGAACAUUUUAAACUACCCCCAGCAAUAACUAGUCCAUAGUAGCAGAAUCAUUUACUAUUCCUUUUCAAACUACCUGCUUUGUCUGAUACCUGAAGCCAA | 1.17
UUACAGUCAUUGAUGGACUCUAUUUUUUUAUUAUUACUUGGACCUUGGUCGUUUUUAUACUAGCAAAAUGUCUUGUUUUAAUUUGUGUUUUUUUUGGCGGGGAGGGAGUGAACUUGCUGA | 3.27
UGAAGAUGGUGGUUGUACAUUAUUUCAUUUAGAAAAUAUUAAUUCAUUUUGUUCUGAAGCUAGGUGUUAAACUGGAAUAGCUAUUAUACCCCAGAGAUUGGGGCAGUUGUGCCCUUCCCU | 2.02
UGGCAUGGGCGCUCUGCAGGGAGCCCCUGGCUGCUUACGCCAGCUAAUUUGGGGCCUGGAUAUUUCUGGUAGGCUUGUGGCUUUUUAAUUUAAAGAUAUUAAGACUUAAUUCACUAAAAU | 0.485

Series 4 — method: aptamer microarray, sandwich; form: DNA with 2'F-ANA; medium: in vitro; concentration: 200 nM; with: Cy3 exosite-II aptamer, 400 nM; reading: higher = stronger binding; oligonucleotide: GGTTGGTGTGGTTGG
Target: Prothrombin, mature alpha-thrombin (F2, Homo sapiens, UniProt P00734)
Notes: whole 15-mer aptamer, many near background
Modification | mean fluorescence intensity [a.u.]
2'F-ANA at 5 6 7 9 15 | 94
2'F-ANA at 1 4 5 6 9 12 13 14 15 | 68.1
2'F-ANA at 3 4 12 | 1020
2'F-ANA at 2 3 5 7 8 14 15 | 75.4
2'F-ANA at 2 3 5 7 8 11 14 15 | 61.4
2'F-ANA at 1 3 6 9 | 233
2'F-ANA at 1 2 4 5 6 8 10 12 14 15 | 51.8
2'F-ANA at 2 3 6 8 9 10 13 | 317
2'F-ANA at 7 8 10 11 12 14 15 | 121
2'F-ANA at 1 3 5 6 7 8 9 11 13 14 | 74.2
2'F-ANA at 4 8 9 10 11 12 15 | 101
2'F-ANA at 2 5 6 7 8 9 10 11 12 13 14 | 47.7
2'F-ANA at 1 3 4 5 9 11 15 | 53.7
2'F-ANA at 1 2 3 4 6 8 11 12 14 | 71.6
2'F-ANA at 1 5 6 8 9 10 12 14 15 | 51.7
2'F-ANA at 6 7 8 9 10 11 13 14 15 | 103
2'F-ANA at 2 5 7 12 13 | 121
2'F-ANA at 1 4 5 7 8 10 12 13 14 15 | 45.6
2'F-ANA at 1 2 3 4 7 11 12 14 | 92.3

Series 5 — method: RNA Bind-n-Seq; form: RNA; medium: in vitro; concentration: 365 nM; baseline: no-protein control; reading: higher = stronger binding
Target: RNA binding protein fox-1 homolog 2, RRM domain, GST-SBP tag (RBFOX2, Homo sapiens, UniProt O43251-10, residues 100-194)
Notes: natural RNA segment, single round, ends assumed
All sequences stand within: GGGAGUUCUACAGUCCGACGAUC … UGGAAUUCUCGGGUGCCAA
Residues (chain): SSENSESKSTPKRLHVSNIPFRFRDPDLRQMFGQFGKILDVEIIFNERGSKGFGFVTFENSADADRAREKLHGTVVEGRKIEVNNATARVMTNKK
Oligonucleotide | RBNS enrichment (R)
GACCAAUAAAUAUAAAAUAUGGUAAUUGGAAUUAACUCCACACCAUAGUAUGCAUUGUUAUACAUACUGUGUACCUAAUUAUGUAUAGCAGUGUAGUCUCAAUUAUAUCU | 0.288
GUUAGGUGAUGGAGCCCAUUCAAGGAGCAUUUGGUGUUGGGUCAGGGUUGCCAAUAGAACACUGUGUCCCAGCUGCCCCCAACUUGCCAGAAGAACCAGCACUUACUUCU | 0.549
UCUCAUGAAUUAGAGAGUUCAUCUUCUGAGGUCAAUAAAGAAGAGGCAAAAACACAGUUCCUUACUUUGCAUUUAGUAAAAACAAGAAAAAGUGUUAGUGAGGGUUAAGC | 1.7
CCCUGGUCUUUGUAGCCAUCUUUGUCCUCUGAAAUGAGGAACCGAUCCUCUUUAAAGUUCCCAAAUAGUUUUCUACCAUAUUUAGAAAGUAUACGUUUAGCCCAGAGGUG | 0.32
AUCCAGGUAGUUCCUGUCAUGUCCACACACACAUGGAUUGUAGUGAUCCAAUUGCCCCAGUCUCCCUGCAUUUGCUAUUAAGUGAAUAUGCUGAACUGUCAUAAAAUUUU | 0.514
AGGUCGUCUGCAGGGUUUUGCCCUUGGUUUACUGAGGGGGGCUGAGCUGCUGCUGGUCCCCCCUUCUGACGUGCAAUGCAAAAGGGACAUCAUGUAUACGCAGCAUUUAU | 3.55
GAUUAAGGAAGGGUCAAGCCAGCCACUGCUGUGGCCCUGCCCAGGGCUUGGUUGAGGGAACGGCUUCUGGCUGUAUGGCUGCAUGUGACAAGCCACGUCCCCUCCCACCU | 15.8
AAUAUCUAUAAAAUAGAUAUAAAUUUUUAAAAUAGUUUAGUAUCAUCAAAGAAAAAAUAAGUAGUAUUUAAGAUGUGAAAAAUGAACAACCUAAAAUAUAUUUUCCAAGC | 0.959
CACACAGCCUCAGACUUACAAACUGAUUAUACUCUAAAAGUUUGUAUGUCAGUUAGCUAAAACUUCAGAAUACAUUUCUCCCUAUAAAGAGUUAUAAAUGAUGGUUUAGU | 0.338
AGGUUUCUAAAAGCAAAAUAAUGAAUGGCCACUGAUGAAAAAUUGUAUUAUUUAUUCAUUCACUGUUUUCUAGUGUUUCUGUGUUUAUUACUGUUCAGCAUCAUCUUGGU | 0.714
UUGAACAUUCUUAAAGUAUCUCGUGGUAUAAUUUCUGUUGACUUCAAGCUUUAAUUUGGAUCCACACCUACAGCUGACCCAAAUGUCUCCUCUGUAGUCAUCUUAUUUGG | 0.316
GUUUUUUUAAUUGUGGUUGUUCUGACGUGUGAAAUUUAAGGAAAGAGCCAUUUUUUAAAAAUGCCGAGCAGGGCAAUGCAAGUACAGCCAAAUAUUAGACUUGAUGUGCA | 0.818
